Measurements gathered from unrelated publications.
Each numbered part is a random draw from the data of one study; scales do not carry over between parts. Several values in a cell are separate wells, animals, samples, runs or records.
Sequence of UniProt Q9BWU1 (whole entry, looked up): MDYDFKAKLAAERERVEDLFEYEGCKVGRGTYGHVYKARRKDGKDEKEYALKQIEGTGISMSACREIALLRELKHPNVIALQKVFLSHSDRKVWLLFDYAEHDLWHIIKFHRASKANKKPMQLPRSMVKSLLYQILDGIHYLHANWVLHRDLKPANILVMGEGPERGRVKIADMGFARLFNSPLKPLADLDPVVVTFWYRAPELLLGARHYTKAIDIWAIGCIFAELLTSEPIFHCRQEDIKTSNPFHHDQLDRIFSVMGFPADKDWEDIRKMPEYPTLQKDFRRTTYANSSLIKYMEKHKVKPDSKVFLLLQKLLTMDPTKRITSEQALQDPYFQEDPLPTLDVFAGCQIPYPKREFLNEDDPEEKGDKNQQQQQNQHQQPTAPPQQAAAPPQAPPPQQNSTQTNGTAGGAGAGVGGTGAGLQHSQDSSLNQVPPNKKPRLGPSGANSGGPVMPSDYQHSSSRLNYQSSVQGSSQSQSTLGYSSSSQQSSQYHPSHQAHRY
Sequence of UniProt Q9HBH9 (whole entry, looked up): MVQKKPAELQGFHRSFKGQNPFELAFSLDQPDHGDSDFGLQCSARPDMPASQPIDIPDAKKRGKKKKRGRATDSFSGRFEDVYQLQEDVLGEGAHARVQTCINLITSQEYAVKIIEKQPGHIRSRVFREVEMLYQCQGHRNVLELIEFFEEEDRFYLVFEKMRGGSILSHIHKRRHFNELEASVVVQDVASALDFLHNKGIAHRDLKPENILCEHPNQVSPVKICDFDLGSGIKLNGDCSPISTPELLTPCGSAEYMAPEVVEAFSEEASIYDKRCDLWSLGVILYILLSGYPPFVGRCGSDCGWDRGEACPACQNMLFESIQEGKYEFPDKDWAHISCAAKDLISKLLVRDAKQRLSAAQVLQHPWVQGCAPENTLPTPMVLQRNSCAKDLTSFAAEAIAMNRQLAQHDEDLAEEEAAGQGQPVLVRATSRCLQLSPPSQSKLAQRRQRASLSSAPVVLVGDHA
Sequence of UniProt P29322 (whole entry, looked up): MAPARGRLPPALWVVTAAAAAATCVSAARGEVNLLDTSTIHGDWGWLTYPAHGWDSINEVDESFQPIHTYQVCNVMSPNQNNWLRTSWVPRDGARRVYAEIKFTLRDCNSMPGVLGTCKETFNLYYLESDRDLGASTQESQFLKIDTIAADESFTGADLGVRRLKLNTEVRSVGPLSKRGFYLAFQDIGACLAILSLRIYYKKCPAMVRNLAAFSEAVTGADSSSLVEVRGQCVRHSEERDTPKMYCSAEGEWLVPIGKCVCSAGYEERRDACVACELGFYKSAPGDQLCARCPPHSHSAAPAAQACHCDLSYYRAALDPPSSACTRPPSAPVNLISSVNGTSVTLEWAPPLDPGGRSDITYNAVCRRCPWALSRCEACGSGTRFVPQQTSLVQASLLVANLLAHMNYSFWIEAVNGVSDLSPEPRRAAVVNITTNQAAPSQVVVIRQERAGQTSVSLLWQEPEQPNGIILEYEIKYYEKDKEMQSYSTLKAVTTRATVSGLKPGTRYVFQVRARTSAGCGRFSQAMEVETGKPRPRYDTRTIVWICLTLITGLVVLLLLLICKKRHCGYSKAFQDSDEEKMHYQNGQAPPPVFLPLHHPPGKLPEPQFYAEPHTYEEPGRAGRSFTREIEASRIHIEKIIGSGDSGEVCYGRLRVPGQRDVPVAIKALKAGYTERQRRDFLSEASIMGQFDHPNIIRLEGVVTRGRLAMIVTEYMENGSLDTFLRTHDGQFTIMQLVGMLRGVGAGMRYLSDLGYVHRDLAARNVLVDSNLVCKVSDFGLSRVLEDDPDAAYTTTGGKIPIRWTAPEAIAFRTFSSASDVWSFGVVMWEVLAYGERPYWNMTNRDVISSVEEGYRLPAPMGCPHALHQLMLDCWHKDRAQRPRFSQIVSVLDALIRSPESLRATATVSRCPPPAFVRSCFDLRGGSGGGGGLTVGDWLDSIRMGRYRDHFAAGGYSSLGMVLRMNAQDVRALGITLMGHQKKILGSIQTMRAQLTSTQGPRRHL
Sequence of UniProt P51956 (whole entry, looked up): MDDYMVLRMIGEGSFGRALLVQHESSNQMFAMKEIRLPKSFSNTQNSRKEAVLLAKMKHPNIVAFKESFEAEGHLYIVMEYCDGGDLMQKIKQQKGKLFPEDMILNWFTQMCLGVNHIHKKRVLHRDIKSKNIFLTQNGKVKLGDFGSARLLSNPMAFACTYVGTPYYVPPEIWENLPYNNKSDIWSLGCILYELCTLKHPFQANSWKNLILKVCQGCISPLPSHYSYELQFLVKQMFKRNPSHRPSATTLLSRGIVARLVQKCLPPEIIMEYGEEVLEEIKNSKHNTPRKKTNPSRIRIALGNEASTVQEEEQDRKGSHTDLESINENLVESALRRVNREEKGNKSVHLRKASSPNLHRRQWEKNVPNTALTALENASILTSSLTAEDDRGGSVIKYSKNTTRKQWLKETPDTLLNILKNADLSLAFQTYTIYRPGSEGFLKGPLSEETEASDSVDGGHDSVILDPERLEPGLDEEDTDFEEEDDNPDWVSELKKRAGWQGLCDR

Block 1
Cell line: mouse MPNST tumor cells
Method: high-content nuclear imaging
Refers to: cell number
Concentration: 10 µM
Time: 12 h
Notes: mean of 2 replicates
Reference: plate mean
Direction: higher = more cells
Compound | nuclei count
CN1CCC(=C2c3ccccc3C=Cc3ccccc32)CC1 | 0.607 z-score
CC1NC(=O)NC1=O (stereo not drawn) | 1.55 z-score and 0.954 z-score
C[S+]([O-])c1ccc(-c2nc(-c3ccc(F)cc3)c(-c3ccncc3)[nH]2)cc1 (stereo not drawn) | 2.05 z-score
COc1nc(C)nc(Cl)c1NC1=NCCN1 | 1.6 z-score and 0.376 z-score
N#Cc1ccc2[nH]cc(CCCCN3CCN(c4ccc5oc(C(N)=O)cc5c4)CC3)c2c1 | -2.59 z-score
CCCOc1ccn2c(C(C)=O)cc(-c3ccccc3S(C)(=O)=O)c2c1 | -0.244 z-score
OCCN1CCN(CC/C=C2/c3ccccc3Sc3ccc(C(F)(F)F)cc32)CC1 | -6.26 z-score
COc1nc(-c2ccc3c(c2)OCO3)n(-c2ccc(NC(=O)CSc3ccccc3)cc2)n1 | 1.17 z-score

Block 2
Species: human
Sample: microsomes or S9
Concentration: 2 µM
Time: 0.5 h
SMILES | remaining compound [%]
Cc1cccc(NC(=N)/N=c2\nc(O)c(Cc3ccccc3)c(C)[nH]2)c1 | 30.9
c1ccc(C2CC(c3cccs3)Nc3ncnn32)cc1 (stereo not drawn) | 51.5
Cn1cc(C2(C)CN(Cc3nc(-c4cccs4)n[nH]3)CCO2)cn1 (stereo not drawn) | 83.3
O=C(O)C[C@@H](Cc1cc(F)c(F)cc1F)NC(=O)Nc1ccc(I)cc1 | 66.7
CC1(C)C(C(=O)O)C1C(=O)Nc1c[nH]c(=O)[nH]c1=O (stereo not drawn) | 56.1
COc1ccc(NC(=O)CCc2c(C)n(Cc3ccccc3)c3nc(-c4ccccc4)nn3c2=O)cc1 | 16.9
Cc1nc(N2CCN(c3ccccn3)CC2)nc2c1C(=O)CC(c1cccs1)C2 (stereo not drawn) | 18.4

Block 3
Target: Bromodomain-containing protein 4, BD1 (BRD4, Homo sapiens, UniProt O60885)
Concentration: 50 µM
Structure (SMILES) | inhibition [%]
CNC(=O)c1cc(Oc2ccc(NC(=O)Nc3ccc(Cl)c(C(F)(F)F)c3)c(F)c2)ccn1 | -5.1
CCS(=O)(=O)N1CC(CC#N)(n2cc(-c3ncnc4[nH]ccc34)cn2)C1 | 1.6
O=C(Nc1c[nH]nc1-c1nc2ccc(CN3CCOCC3)cc2[nH]1)NC1CC1 | -5.55

Block 4
Compound: NS(=O)(=O)c1cc(NC(=O)Cc2ccccc2)ccc1Oc1cccc(Cl)c1
Concentration: 1 µM
target | assay | remaining binding [%]
NEK3 (Homo sapiens, UniProt P51956) | cell-free assay, competition with immobilised ligand | 100
WNK3 (Homo sapiens, UniProt Q9BYP7) | cell-free assay, competition with immobilised ligand | 78
MAP3K3 (Homo sapiens, UniProt Q99759) | cell-free assay, competition with immobilised ligand | 71
EGFR (Homo sapiens, UniProt P00533, T790M) | cell-free assay, competition with immobilised ligand | 100
MAP2K1 (Homo sapiens, UniProt Q02750) | cell-free assay, competition with immobilised ligand | 97
MAP2K4 (Homo sapiens, UniProt P45985) | cell-free assay, competition with immobilised ligand | 82
MAP3K4 (Homo sapiens, UniProt Q9Y6R4) | cell-free assay, competition with immobilised ligand | 100
EGFR (Homo sapiens, UniProt P00533, L858R) | cell-free assay, competition with immobilised ligand | 85
STK16 (Homo sapiens, UniProt O75716) | cell-free assay, competition with immobilised ligand | 95
CDK19 (Homo sapiens, UniProt Q9BWU1) | competition binding | 91
MET (Homo sapiens, UniProt P08581, Y1235D) | cell-free assay, competition with immobilised ligand | 100
MYLK4 (Homo sapiens, UniProt Q86YV6) | cell-free assay, competition with immobilised ligand | 93
GSK3B (Homo sapiens, UniProt P49841) | cell-free assay, competition with immobilised ligand | 80
LIM domain kinase 2 (LIMK2, Homo sapiens, UniProt P53671) | cell-free assay, competition with immobilised ligand | 88
STK36 (Homo sapiens, UniProt Q9NRP7) | cell-free assay, competition with immobilised ligand | 100
EPHA8 (Homo sapiens, UniProt P29322) | cell-free assay, competition with immobilised ligand | 100
CSNK1D (Homo sapiens, UniProt P48730) | cell-free assay, competition with immobilised ligand | 93
Ribosomal protein S6 kinase alpha-4, N-terminal kinase domain (RPS6KA4, Homo sapiens, UniProt O75676) | cell-free assay, competition with immobilised ligand | 100
MET (Homo sapiens, UniProt P08581, M1250T) | cell-free assay, competition with immobilised ligand | 99
Tyrosine-protein kinase ABL1, non-phosphorylated (ABL1, Homo sapiens, UniProt P00519, F317L) | cell-free assay, competition with immobilised ligand | 57
MKNK2 (Homo sapiens, UniProt Q9HBH9) | cell-free assay, competition with immobilised ligand | 86
EPHA7 (Homo sapiens, UniProt Q15375) | cell-free assay, competition with immobilised ligand | 92
FLT3 (Homo sapiens, UniProt P36888, D835V/ITD) | cell-free assay, competition with immobilised ligand | 53

Block 5
Target: DNA polymerase theta, ATPase domain (POLQ, Homo sapiens, UniProt O75417)
Sequence of UniProt O75417 (whole entry, unmodified, looked up): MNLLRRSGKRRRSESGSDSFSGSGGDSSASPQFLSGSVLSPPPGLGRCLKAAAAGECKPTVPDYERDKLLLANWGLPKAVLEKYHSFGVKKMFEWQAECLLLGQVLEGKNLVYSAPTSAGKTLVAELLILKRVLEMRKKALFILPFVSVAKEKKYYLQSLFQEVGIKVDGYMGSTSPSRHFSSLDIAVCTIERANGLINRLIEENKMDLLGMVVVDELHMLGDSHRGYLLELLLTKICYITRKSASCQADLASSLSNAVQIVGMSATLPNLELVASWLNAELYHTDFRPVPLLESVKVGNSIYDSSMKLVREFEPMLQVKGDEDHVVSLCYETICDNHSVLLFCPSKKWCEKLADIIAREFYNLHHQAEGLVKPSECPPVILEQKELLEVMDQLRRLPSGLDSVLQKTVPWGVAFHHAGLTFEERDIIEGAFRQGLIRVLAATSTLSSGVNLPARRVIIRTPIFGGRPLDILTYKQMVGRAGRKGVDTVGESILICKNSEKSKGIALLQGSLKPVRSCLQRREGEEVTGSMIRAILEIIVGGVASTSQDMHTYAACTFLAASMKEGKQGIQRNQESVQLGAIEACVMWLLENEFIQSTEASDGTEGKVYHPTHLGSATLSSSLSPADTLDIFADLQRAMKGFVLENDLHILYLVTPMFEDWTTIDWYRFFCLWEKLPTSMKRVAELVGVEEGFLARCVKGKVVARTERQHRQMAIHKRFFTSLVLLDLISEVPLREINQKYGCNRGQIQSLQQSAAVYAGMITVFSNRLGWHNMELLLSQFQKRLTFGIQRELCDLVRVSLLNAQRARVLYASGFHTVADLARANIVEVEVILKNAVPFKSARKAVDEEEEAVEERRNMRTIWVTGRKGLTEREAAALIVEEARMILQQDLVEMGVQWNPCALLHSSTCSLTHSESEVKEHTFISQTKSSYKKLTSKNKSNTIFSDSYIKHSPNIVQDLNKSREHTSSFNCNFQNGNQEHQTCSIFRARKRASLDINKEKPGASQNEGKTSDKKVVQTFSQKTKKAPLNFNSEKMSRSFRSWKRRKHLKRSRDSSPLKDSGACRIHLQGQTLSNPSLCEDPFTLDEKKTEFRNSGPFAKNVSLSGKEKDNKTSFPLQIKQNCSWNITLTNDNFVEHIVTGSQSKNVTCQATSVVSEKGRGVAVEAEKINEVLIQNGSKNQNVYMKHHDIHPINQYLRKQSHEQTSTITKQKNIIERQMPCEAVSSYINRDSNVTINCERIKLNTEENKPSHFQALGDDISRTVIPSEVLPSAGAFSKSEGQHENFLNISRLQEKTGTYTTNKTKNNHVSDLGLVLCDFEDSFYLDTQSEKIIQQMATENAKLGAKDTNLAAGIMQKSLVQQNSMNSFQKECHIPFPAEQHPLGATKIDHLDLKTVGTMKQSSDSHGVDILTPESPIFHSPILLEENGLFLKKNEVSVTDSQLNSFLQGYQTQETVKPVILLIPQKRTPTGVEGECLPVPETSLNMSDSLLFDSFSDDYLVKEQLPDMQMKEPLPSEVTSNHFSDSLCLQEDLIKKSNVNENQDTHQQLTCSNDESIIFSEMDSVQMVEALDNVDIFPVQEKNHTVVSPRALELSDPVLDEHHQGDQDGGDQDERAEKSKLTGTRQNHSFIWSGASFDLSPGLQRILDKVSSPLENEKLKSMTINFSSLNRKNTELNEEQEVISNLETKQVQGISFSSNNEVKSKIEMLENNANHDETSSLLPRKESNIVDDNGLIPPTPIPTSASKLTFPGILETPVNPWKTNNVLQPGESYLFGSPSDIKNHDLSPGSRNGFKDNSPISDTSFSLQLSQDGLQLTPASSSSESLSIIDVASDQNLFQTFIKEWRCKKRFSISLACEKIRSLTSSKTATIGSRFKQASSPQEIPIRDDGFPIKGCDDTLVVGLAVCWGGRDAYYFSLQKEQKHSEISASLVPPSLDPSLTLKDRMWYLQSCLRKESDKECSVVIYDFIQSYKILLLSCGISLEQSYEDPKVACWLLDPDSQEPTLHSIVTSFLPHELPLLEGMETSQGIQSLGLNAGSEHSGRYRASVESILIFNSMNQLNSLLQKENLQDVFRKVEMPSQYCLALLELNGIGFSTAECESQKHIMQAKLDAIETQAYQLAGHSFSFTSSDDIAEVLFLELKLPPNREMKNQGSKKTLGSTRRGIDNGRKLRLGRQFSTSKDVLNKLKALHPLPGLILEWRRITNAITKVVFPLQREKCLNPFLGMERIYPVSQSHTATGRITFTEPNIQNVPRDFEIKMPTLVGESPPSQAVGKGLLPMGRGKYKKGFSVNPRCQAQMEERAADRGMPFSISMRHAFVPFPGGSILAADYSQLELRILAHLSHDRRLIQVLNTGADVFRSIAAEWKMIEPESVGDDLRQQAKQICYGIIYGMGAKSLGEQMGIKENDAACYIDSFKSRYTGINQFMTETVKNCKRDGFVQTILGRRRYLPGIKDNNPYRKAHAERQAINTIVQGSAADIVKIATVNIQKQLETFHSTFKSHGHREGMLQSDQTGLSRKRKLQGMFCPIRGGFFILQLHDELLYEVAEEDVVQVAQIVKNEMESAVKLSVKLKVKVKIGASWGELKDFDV
Read-out: enzyme activity
Mode: inhibitor
Concentration: 77 µM
Reference: untreated
Structure (SMILES) | remaining activity [%]
CC1(C)C(=O)N(CCN2CCC(C(=O)c3ccc(F)cc3)CC2)c2ccccc21 | 111
CCOc1cc(N)c(Cl)cc1C(=O)NCC1CN(Cc2ccc(F)cc2)CCO1 (stereo not drawn) | 91.4
COc1ccc2cc1Oc1ccc(cc1)C[C@H]1c3c(cc4c(c3Oc3cc5c(cc3OC)CCN(C)[C@@H]5C2)OCO4)CCN1C | 103
COCCOc1cc2nc[nH]c(=O)c2cc1OCCOC | 101
C[N+]1(C)C[C@H](O)C[C@H]1C(=O)[O-] | 99.1
COc1cc2c(cc1Cc1cccc(Cl)c1F)c(=O)c(C(=O)O)cn2[C@H](CO)C(C)C | 66.1
Nc1nccc2c1ncn2[C@@H]1C=C(CO)[C@@H](O)[C@H]1O | 105

For quick reference, copied from above (block 5):
Structure (SMILES) | remaining activity [%]
CC1(C)C(=O)N(CCN2CCC(C(=O)c3ccc(F)cc3)CC2)c2ccccc21 | 111
Nc1nccc2c1ncn2[C@@H]1C=C(CO)[C@@H](O)[C@H]1O | 105
CCOc1cc(N)c(Cl)cc1C(=O)NCC1CN(Cc2ccc(F)cc2)CCO1 (stereo not drawn) | 91.4
